Measured values pooled from the literature.
Every numbered part comes from another study and shows a few of its results, in no order. Changes are numbered by the printed parent chain.
UniProt P15056, sequence (whole entry, unmodified, looked up): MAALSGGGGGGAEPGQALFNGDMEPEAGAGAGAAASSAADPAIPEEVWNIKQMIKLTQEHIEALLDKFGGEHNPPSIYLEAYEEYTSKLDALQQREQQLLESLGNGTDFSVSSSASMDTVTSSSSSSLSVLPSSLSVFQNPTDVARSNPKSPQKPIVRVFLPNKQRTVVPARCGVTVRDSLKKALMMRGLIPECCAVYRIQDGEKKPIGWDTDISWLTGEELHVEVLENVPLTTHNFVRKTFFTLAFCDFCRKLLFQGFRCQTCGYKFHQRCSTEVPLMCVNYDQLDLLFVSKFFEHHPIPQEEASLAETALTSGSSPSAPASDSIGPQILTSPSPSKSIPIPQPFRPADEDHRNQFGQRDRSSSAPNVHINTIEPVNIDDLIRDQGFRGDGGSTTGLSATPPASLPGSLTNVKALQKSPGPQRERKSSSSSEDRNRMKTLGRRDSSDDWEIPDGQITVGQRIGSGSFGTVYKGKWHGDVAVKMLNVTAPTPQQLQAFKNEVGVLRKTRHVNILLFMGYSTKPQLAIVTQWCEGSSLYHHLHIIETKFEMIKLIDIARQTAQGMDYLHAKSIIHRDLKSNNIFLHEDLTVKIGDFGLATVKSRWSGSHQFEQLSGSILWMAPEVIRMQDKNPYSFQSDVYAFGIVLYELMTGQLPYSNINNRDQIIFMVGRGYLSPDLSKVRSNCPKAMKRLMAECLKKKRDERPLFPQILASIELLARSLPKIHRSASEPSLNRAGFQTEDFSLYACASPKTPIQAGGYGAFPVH
UniProt P27361, sequence (whole entry, looked up): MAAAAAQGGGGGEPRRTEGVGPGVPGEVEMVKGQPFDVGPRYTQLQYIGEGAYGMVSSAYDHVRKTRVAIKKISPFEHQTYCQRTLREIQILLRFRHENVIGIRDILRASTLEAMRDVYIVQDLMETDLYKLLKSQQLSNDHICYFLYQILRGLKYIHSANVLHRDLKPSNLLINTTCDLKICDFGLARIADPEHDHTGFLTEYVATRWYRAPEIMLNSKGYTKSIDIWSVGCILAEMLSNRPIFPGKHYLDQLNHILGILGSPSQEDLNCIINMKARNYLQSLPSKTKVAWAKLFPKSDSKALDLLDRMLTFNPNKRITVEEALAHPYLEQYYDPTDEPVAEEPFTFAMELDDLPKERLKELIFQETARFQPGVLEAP

Study 1
Target: CCNE2, cyclin fold, Cln2 fusion (human)
Method: yeast growth competition, sequencing
Matrix: yeast
Setting: weak parent motif
Relative to: not given
Reading: higher = stronger binding
Parent: MASTL docking peptide (human); PMIAKNLMCELDE
| Variant | normalised enrichment score |
| --- | --- |
| PMIAKNLMFELDE [C9F] | 0.397 |
| PMIAKWLMCELDE [N6W] | 0.158 |
| PMIAVNLMCELDE [K5V] | -0.146 |
| PMIAKHLMCELDE [N6H] | -0.031 |
| PMIAKNLMCELEE [D12E] | -0.0658 |
| PMIAKNLMCGLDE [E10G] | -0.0117 |
| PMIAKNLMCELVE [D12V] | 0.0866 |
| PMIAKNLMCKLDE [E10K] | 0.317 |

Study 2
Target: Myc proto-oncogene protein, bHLH-zipper, MAX partner unstated (MYC, Homo sapiens, UniProt P01106, residues 368-449)
UniProt P01106, sequence (368-449, looked up): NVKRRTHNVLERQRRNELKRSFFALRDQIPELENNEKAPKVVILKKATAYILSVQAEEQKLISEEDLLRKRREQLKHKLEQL
Method: protein-binding microarray
Form: double-stranded DNA, one strand shown
Matrix: in vitro
Concentration: not given
Setting: k-mer, scored over probes, only values ≥0.25
Reading: higher = stronger binding
| Oligonucleotide | E-score |
| --- | --- |
| CGTGGGGC | 0.348 |
| ACGAGGTG | 0.356 |
| ACGCGCGC | 0.285 |
| CCCCGCCA | 0.354 |
| CGTGCTCC | 0.39 |
| GAACATGA | 0.258 |
| GCATGTGA | 0.422 |
| CACGTTAA | 0.304 |

Study 3
Target: Serine/threonine-protein kinase D1 (PRKD1, Homo sapiens, UniProt Q15139)
UniProt Q15139, sequence (whole entry, looked up): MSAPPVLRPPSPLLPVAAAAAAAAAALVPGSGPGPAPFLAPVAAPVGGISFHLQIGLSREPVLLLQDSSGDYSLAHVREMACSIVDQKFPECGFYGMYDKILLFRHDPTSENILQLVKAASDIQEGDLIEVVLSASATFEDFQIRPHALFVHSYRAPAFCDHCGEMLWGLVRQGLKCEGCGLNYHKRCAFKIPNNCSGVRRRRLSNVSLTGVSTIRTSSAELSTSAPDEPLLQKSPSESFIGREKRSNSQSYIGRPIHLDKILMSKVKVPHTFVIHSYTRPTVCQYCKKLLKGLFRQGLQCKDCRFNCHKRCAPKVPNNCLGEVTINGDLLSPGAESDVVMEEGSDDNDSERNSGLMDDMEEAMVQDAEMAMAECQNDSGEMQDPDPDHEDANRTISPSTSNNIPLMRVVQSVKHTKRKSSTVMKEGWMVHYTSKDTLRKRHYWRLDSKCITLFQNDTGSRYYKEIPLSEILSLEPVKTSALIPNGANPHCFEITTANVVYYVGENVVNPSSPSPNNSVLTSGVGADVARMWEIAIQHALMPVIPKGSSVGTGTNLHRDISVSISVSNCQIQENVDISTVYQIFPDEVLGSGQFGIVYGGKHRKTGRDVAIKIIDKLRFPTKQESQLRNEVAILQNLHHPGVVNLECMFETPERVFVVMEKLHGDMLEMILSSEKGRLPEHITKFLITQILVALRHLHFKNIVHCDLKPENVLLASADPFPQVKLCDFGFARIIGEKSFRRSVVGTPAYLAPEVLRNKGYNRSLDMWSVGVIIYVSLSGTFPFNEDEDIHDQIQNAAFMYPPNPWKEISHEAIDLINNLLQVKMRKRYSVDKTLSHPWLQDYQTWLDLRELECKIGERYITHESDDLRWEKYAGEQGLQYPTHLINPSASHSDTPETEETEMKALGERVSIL
Observed: enzyme activity
Mode: inhibitor
Concentration: 0.5 µM
Relative to: control
| SMILES | remaining activity |
| --- | --- |
| NCCNc1ncc(C(N)=O)c(Nc2cccc(C(F)(F)F)c2)n1 | 30.3% |
| O=C(O)c1ccc2c3c1cccc3c(=O)n1c3ccccc3nc21 | 86.2% |
| CN(C)c1ccc(C=C2C(=O)Nc3ccccc32)cc1 | 100% |
| CNC(=O)c1cc(Oc2ccc(NC(=O)Nc3ccc(Cl)c(C(F)(F)F)c3)cc2)ccn1 | 99.7% |
| CCOC(=O)c1c(C)[nH]c(/C=C2\C(=O)Nc3ccccc32)c1C | 91.3% |
| Cc1ccc(NC(=O)c2ccc(CN3CCN(C)CC3)cc2)cc1Nc1nc(-c2cccnc2)cs1 | 98.2% |
| Cc1ccc(Nc2nccc(N(C)c3ccc4c(C)n(C)nc4c3)n2)cc1S(N)(=O)=O | 96.9% |
| COc1ccc(OC)c2c(=S)c3ccccc3[nH]c12 | 99.8% |
| C#Cc1cccc(Nc2ncnc3cc(OCCOC)c(OCCOC)cc23)c1 | 94.8% |
| COc1cc2nccc(Oc3ccc(NC(=S)NC(=O)c4ccccc4C)cc3)c2cc1OC | 137% |
| O=C1NC(=O)C(c2cn(CCCn3ccnc3)c3ccccc23)=C1Nc1ccccc1 | 94.4% |
| O=c1c2ccccc2[nH]c(=S)n1CCN1CCC(=C(c2ccc(F)cc2)c2ccc(F)cc2)CC1 | 101% |
| Nc1[nH]nc2nc3ccccc3nc12 | 94.9% |
| O=C(Nc1cccc(Nc2cc(Nc3cccc(C(F)(F)F)c3)ncn2)c1)C1CC1 | 100% |

Study 4
Compound: O=C1CCc2cc(Nc3cc(OC4CCOCC4)c([N+](=O)[O-])cc3Cl)ccc2N1
Observed: cell-free assay
Method: competition with immobilised ligand
Concentration: 1 µM
| target | remaining binding |
| --- | --- |
| Mitogen-activated protein kinase 3 (MAPK3, Homo sapiens, UniProt P27361) | 78% |
| Serine/threonine-protein kinase B-raf (BRAF, Homo sapiens, UniProt P15056, V600E) | 100% |
| Tyrosine-protein kinase SYK (SYK, Homo sapiens, UniProt P43405) | 100% |
| Receptor-type tyrosine-protein kinase FLT3 (FLT3, Homo sapiens, UniProt P36888, N841I) | 100% |

Mixed results
| Molecule | target | assay | system | setting | how to read | endpoint | value |
| --- | --- | --- | --- | --- | --- | --- | --- |
| PhoQ, residues 284 288 289 292 302 303 NLGVHL | PhoP, residues 12 14 15 18 19 AQALL (Escherichia coli, UniProt P23836) | Sort-seq, refers to: YFP reporter | E. coli | PhoQ-PhoP variant library, with: 10 µM Mg2+ | relative to: high Mg2+ state, higher = stronger signaling | fold induction | 28.6 |

Repeated from above (study 3):
| SMILES | remaining activity |
| --- | --- |
| NCCNc1ncc(C(N)=O)c(Nc2cccc(C(F)(F)F)c2)n1 | 30.3% |
| O=C(O)c1ccc2c3c1cccc3c(=O)n1c3ccccc3nc21 | 86.2% |
| CN(C)c1ccc(C=C2C(=O)Nc3ccccc32)cc1 | 100% |
| CNC(=O)c1cc(Oc2ccc(NC(=O)Nc3ccc(Cl)c(C(F)(F)F)c3)cc2)ccn1 | 99.7% |
